Results collected from several papers.
± gives the spread as reported.
Cell line: HepG2

| Compound | assay | conditions | how to read | endpoint | result |
| --- | --- | --- | --- | --- | --- |
| CCC(C)C1NC(=O)C(Cc2ccccc2)NC(=O)C(CCCCCC(=O)C2CO2)NC(=O)C2CCCCN2C1=O (stereo not shown) | cytotoxicity, MTS | 48 h | – | EC50 | 12 ± 1 µM |
| CCCCCCCC(=O)NC(C)(C)C(=O)NCC(=O)N[C@@H](CC(C)C)C(=O)NC(C)(C)C(=O)NCC(=O)N[C@H](C(=O)N[C@H](CO)CC(C)C)[C@@H](C)CC | cytotoxicity, MTS | 48 h | – | EC50 | > 25 µM |
| CC(=O)N[C@H](C(=O)N[C@@H](C)C(=O)N[C@@H](CCC(N)=O)C(=O)N[C@@H](CCC(N)=O)C(=O)N[C@@H](C)C(=O)N[C@@H](C)C(=O)N[C@@H](CC(N)=O)C(=O)N[C@H](C(=O)N[C@@H](C)C(=O)N[C@@H](C)C(=O)N[C@H](C(=O)N[C@@H](CC(C)C)C(=O)N[C@@H](CCCCN)C(=O)N[C@@H](CC(N)=O)C(=O)N[C@@H](CO)C(=O)N[C@@H](CCCNC(=N)N)C(=O)N[C@@H](CO)C(=O)N[C@@H](CC(C)C)C(=O)NCC(=O)N[C@@H](CCC(=O)O)C(=O)N[C@@H](CC(N)=O)C(=O)N[C@@H](CC(=O)O)C(=O)N[C@@H](CC(=O)O)C(=O)NCC(=O)N[C@@H](CC(N)=O)C(=O)N[C@@H](CC(N)=O)C(=O)N[C@@H](CCC(=O)O)C(=O)N[C@@H](CC(=O)O)C(=O)N[C@@H](CC(N)=O)C(=O)N[C@@H](CCC(=O)O)C(=O)N[C@@H](CCCCN)C(=O)N[C@@H](CC(C)C)C(=O)N[C@@H](CCCNC(=N)N)C(N)=O)[C@@H](C)O)C(C)C)C(C)C | – | concentration not given | baseline: control | ATPase activity | decreased |
| Cc1ccc(Nc2ncc3c(n2)N(C)C(=O)N(c2cc(NC(=O)c4cc(-n5cnc(C)c5)cc(C(F)(F)F)c4)ccc2C)C3)cn1 | cell growth or viability, ATP luminescence | 72 h | – | GI50 | 0.879 µM |
| CCCCCCCC(=O)NC(C)(C)C(=O)NCC(=O)N[C@@H](CC(C)C)C(=O)NC(C)(C)C(=O)NCC(=O)NCC(=O)N[C@@H](CC(C)C)C(=O)NC(C)(C)C(=O)NCC(=O)N[C@@H](CC(C)C)C(=O)N[C@H](CO)CC(C)C | cytotoxicity, MTS | 48 h | – | EC50 | > 25 µM |
| CC[C@@]1(O)C(=O)OCc2c1cc1n(c2=O)Cc2cc3cc(OC(=O)CCCC(=O)NCC(=O)N[C@@H](Cc4ccccc4)C(=O)N[C@@H](Cc4ccccc4)C(=O)N[C@@H](Cc4ccc(OP(=O)(O)O)cc4)C(=O)NCC(=O)N[C@@H](CCC(=O)O)C(=O)N[C@@H](CCCNC(=N)N)C(=O)NCC(=O)N[C@@H](CC(=O)O)C(=O)O)ccc3nc2-1 | annexin V/PI flow cytometry | 200 nM, 48 h | – | apoptotic cells | ~30% |
| CC[C@@](C)(NC(C)=O)C(=O)N[C@@H](CC(N)=O)C(=O)N[C@@H](CC(C)C)C(=O)NC(C)(C)C(=O)N1CCC[C@H]1C(=O)N[C@@H](CO)C(=O)N[C@H](C(=O)NC(C)(C)C(=O)N1CCC[C@H]1C(=O)NC(C)(C)C(=O)N[C@@H](CC(C)C)C(=O)NC(C)(C)C(=O)N1CCC[C@H]1C(=O)N[C@H](CO)CC(C)C)C(C)C | cytotoxicity, MTS | 48 h | – | EC50 | > 25 µM |
| CC(C)C[C@@H](NC(=O)CCNc1ccc([N+](=O)[O-])c2nonc12)C(=O)N[C@H](CC(C)C)C(=O)N[C@H](CC(C)C)C(=O)N[C@H](CC(C)C)C(=O)N[C@H](Cc1ccc(OP(=O)(O)O)cc1)C(=O)O | MTT | 200 µM, 24 h | – | viability | > 60% |
| CC[C@H](C)[C@H](NC(=O)[C@H](CO)NC(=O)[C@@H]1CCCN1C(=O)C(C)(C)NC(=O)[C@H](CC(C)C)NC(=O)[C@H](CCC(N)=O)NC(=O)C(C)(C)NC(C)=O)C(=O)NC(C)(C)C(=O)N1CCC[C@H]1C(=O)NC(C)(C)C(=O)N[C@@H](CC(C)C)C(=O)NC(C)(C)C(=O)N1CCC[C@H]1C(=O)N[C@H](CO)CC(C)C | cytotoxicity, MTS | 48 h | – | EC50 | > 25 µM |
| CC(=O)N[C@@H](CCCCN)C(=O)N[C@H](C(=O)NCC(=O)N[C@@H](CC(=O)O)C(=O)N[C@@H](CCC(=O)O)C(=O)N[C@@H](CCCCN)C(=O)N[C@@H](CCCCN)C(=O)NCC(=O)NCC(=O)N[C@@H](Cc1ccc(O)cc1)C(=O)NCC(=O)N[C@@H](CCCNC(=N)N)C(=O)N[C@@H](CCCCN)C(=O)N[C@@H](CCCCN)C(=O)N[C@@H](CCCNC(=N)N)C(=O)N[C@@H](CCCNC(=N)N)C(=O)N[C@@H](CCC(N)=O)C(=O)N[C@@H](CCCNC(=N)N)C(=O)N[C@@H](CCCNC(=N)N)C(=O)N[C@@H](CCCNC(=N)N)C(N)=O)[C@@H](C)O | apoptosis, flow cytometry | 40 µM, 16 h | – | caspase-3 positive cells | 1.07% |
| CCCCCCCC(=O)NC(C)(C)C(=O)NCC(=O)N[C@@H](CC(C)C)C(=O)NC(C)(C)C(=O)NCC(=O)NCC(=O)N[C@H](C(=O)NC(C)(C)C(=O)NCC(=O)N[C@H](C(=O)N[C@H](CO)CC(C)C)C(C)C)C(C)C | cytotoxicity, MTS | 48 h | – | EC50 | > 25 µM |
| CCOc1cccc2c1[O][Pt-2]1([Cl])[N+](=C2)Cc2cccc[n+]21 (stereo not shown) | flow cytometry PI | concentration not given, 24 h | – | cells in G0/G1 phase | 21 to 27% |
| O=C1CC2(C1)C(=O)[O][Pt]1([Cl])([O]C(=O)C(Cl)Cl)([NH][C@@H]3CCCC[C@H]3[NH]1)[O]C2=O | annexin V-FITC/PI flow cytometry | 50 µM, 24 h | – | early apoptotic cells | 25% |
| CCCCCCCC(=O)NC(C)(C)C(=O)NCC(=O)N[C@@H](CC(C)C)C(=O)NC(C)(C)C(=O)NCC(=O)NCC(=O)N[C@H](C(=O)NC(C)(C)C(=O)NCC(=O)N[C@H](C(=O)N[C@H](CO)CC(C)C)[C@@H](C)CC)C(C)C | cytotoxicity, MTS | 48 h | – | EC50 | > 25 µM |
| O=C1C=CC(=O)c2c(O)ccc(O)c21 | cytotoxicity, MTT | – | baseline: IC50 MRC5 over IC50 HepG2 | selectivity ratio | 4.69 |
| COc1cc2c3c4c1Oc1cc5c(cc1O4)[C@H](Cc1ccc(OCCCN(C)C)c(c1)Oc1ccc(cc1)C[C@@H]3N(C)CC2)N(C)CC5 | – | – | baseline: cytotoxicity over antimalarial IC50 | selectivity ratio | > 75 |
| O=C1/C(=C/c2ccc3c(c2)OCCO3)SC(=S)N1[C@@H]1O[C@H](CO)[C@@H](O)[C@H](O)[C@H]1O | refers to: Casp-8 | IC50, 48 h | baseline: untreated | mRNA fold change | 1.13 fold |
| C[C@@H](O)[C@@H]1NC(=O)[C@H](CCCCN)NC(=O)CCC(=O)NCCCC[C@@H](C(=O)NCC(=O)NCC(=O)N[C@@H](Cc2ccc(O)cc2)C(=O)NCC(=O)N[C@@H](CCCNC(=N)N)C(=O)N[C@@H](CCCCN)C(=O)N[C@@H](CCCCN)C(=O)N[C@@H](CCCNC(=N)N)C(=O)N[C@@H](CCCNC(=N)N)C(=O)N[C@@H](CCC(N)=O)C(=O)N[C@@H](CCCNC(=N)N)C(=O)N[C@@H](CCCNC(=N)N)C(=O)N[C@@H](CCCNC(=N)N)C(N)=O)NC(=O)[C@H](CCCCN)NC(=O)[C@H](CCC(=O)O)NC(=O)[C@H](CC(=O)O)NC(=O)CNC1=O | apoptosis, flow cytometry | 40 µM, 16 h | – | caspase-3 positive cells | 0.9% |
| CC[C@@]1(O)C(=O)OCc2c1cc1n(c2=O)Cc2cc3cc(OC(=O)CCCC(=O)NCC(=O)N[C@@H](Cc4ccccc4)C(=O)N[C@@H](Cc4ccccc4)C(=O)N[C@@H](Cc4ccc(OP(=O)(O)O)cc4)C(=O)NCCSSCCNC(=O)CCC(=O)N[C@@H](CCC(=O)O)C(=O)N[C@@H](CCCNC(=N)N)C(=O)NCC(=O)N[C@@H](CC(=O)O)C(=O)O)ccc3nc2-1 | annexin V/PI flow cytometry | 200 nM, 48 h | – | necrotic cells | 2.44% |

Excerpt of the above:
| Compound | assay | conditions | how to read | endpoint | result |
| --- | --- | --- | --- | --- | --- |
| CCCCCCCC(=O)NC(C)(C)C(=O)NCC(=O)N[C@@H](CC(C)C)C(=O)NC(C)(C)C(=O)NCC(=O)NCC(=O)N[C@H](C(=O)NC(C)(C)C(=O)NCC(=O)N[C@H](C(=O)N[C@H](CO)CC(C)C)[C@@H](C)CC)C(C)C | cytotoxicity, MTS | 48 h | – | EC50 | > 25 µM |
| CC(C)C[C@@H](NC(=O)CCNc1ccc([N+](=O)[O-])c2nonc12)C(=O)N[C@H](CC(C)C)C(=O)N[C@H](CC(C)C)C(=O)N[C@H](CC(C)C)C(=O)N[C@H](Cc1ccc(OP(=O)(O)O)cc1)C(=O)O | MTT | 200 µM, 24 h | – | viability | > 60% |
